Measured values pooled from the literature.
Each line is one published result; not all experiments were run side by side. ± gives the spread as reported.

CC(C(=O)Nc1c(F)cccc1F)N1CCN(c2ccccc2)CC1 (stereo not drawn)
Cmax (C57BL/6J mouse, female, brain; intraperitoneal, 10 mg/kg single dose): 7720 ± 2370 ng/mL

CN(C)C(=O)c1cc2cnc(Nc3ccc(-c4ccc5c(=O)cc(N6CCOCC6)oc5c4)cc3)nc2n1C1CCCC1
Cmax (BALB/c mouse, plasma; oral, 20 mg/kg): 1440 ± 220 ng/mL

Cc1[nH]c(C)c(S(=O)(=O)Nc2ccc(C(F)(F)F)c(Cl)c2)c1C(=O)N1CCC(F)(F)C1
Cmax (mouse CD-1 male, plasma; intraperitoneal, 40 mg/kg): 28000 nM

Cc1nc2c(n1CCCN1CCCCC1)C(=O)c1ccccc1C2=O
Cmax (C57BL/6 mouse, plasma; oral, 20 mg/kg): 697 nM

Cl.Fc1ccc(Oc2ccc(Nc3ccc4ncc(OCC5CCNCC5)nc4c3)cc2)cc1
Cmax (NOD-SCID mouse, plasma; intraperitoneal, 50 mg/kg): 3100 nM

O=C(NCCN1CCCC1)c1cc(-c2ccc(CN3CCOCC3)cc2)nc2ccc(F)cc12
Cmax (NMRI mouse Plasmodium berghei-infected, blood; oral, 0.3 mg/kg, monotherapy): 18 nM

CC(=O)NCc1cc2c(cc1F)C(=O)N(C1CCC(=O)NC1=O)C2 (stereo not drawn)
Cmax (male CD-1 mouse, plasma; oral, 10 mg/kg of parent drug): 5.6 ± 2.7 ng/mL

CC(=O)N(C)C1CCN(c2cc(F)cc(NC(=O)c3cc4c(F)ccc(C)c4[nH]3)c2)C1 (stereo not drawn)
Cmax (CD1 mouse; oral, 50 mg/kg): 39.4 ng/mL

c1csc(CNc2cc[nH]n2)c1
Cmax (male CD-1 mouse, plasma; oral, 20 mg/kg, hydrochloride salt): 54600 nM

O=c1c2cc(Cl)c(CO)cc2[nH]c(=S)n1Cc1cccnc1
Cmax (mouse; oral, 10 mg/kg): 24 ng/mL

CN1CCC[C@H](CN2c3ccccc3Sc3ccccc32)C1.Cl
Cmax (fasted female ICR mouse, brain; oral, 16 mg/kg): 4340 ng/g

CNC(=O)c1cc(Oc2ccc(NC(=O)N(c3ccc(Cl)c(C(F)(F)F)c3)[C@@H]3O[C@H](C(=O)O)[C@@H](O)[C@H](O)[C@H]3O)cc2)ccn1
Cmax (mouse, wild type, plasma; oral, 10 mg/kg, without rifampin, geometric mean): 880 ng/mL

CN1CCCC1CCNS(=O)(=O)c1ccc2c(c1)CN(CC1CCCCC1)CC2 (stereo not drawn)
Cmax (mouse, plasma; oral, 10 mg/kg, single dose): 517 nM

CCO[C@H]1CCN(Cc2c(OC)cc(C)c3[nH]ccc23)[C@H](c2ccc(C(=O)O)cc2)C1
Cmax (C57BL/6 mouse; 10 mg/kg, dose-normalised to 1 mg/kg): 224 nM

CNC(=O)c1cc(Oc2ccc(NC(=O)Nc3ccc(Cl)c(C(F)(F)F)c3)cc2)cc[n+]1[O-]
Cmax (mouse, wild type, plasma; oral, 10 mg/kg, without rifampin, geometric mean): 29 ng/mL

CN[C@H](CC(C)C)C(=O)N[C@H]1C(=O)N[C@@H](CC(N)=O)C(=O)N[C@H]2C(=O)N[C@H]3C(=O)N[C@H](C(=O)N[C@H](C(=O)O)c4cc(O)cc(O)c4-c4cc3ccc4O)[C@H](O)c3ccc(c(Cl)c3)Oc3cc2cc(c3O[C@@H]2O[C@H](CO)[C@@H](O)[C@H](O)[C@H]2O[C@H]2C[C@](C)(N)[C@H](O)[C@H](C)O2)Oc2ccc(cc2Cl)[C@H]1O
Cmax (C57BL/6N mouse H1, faeces, wet weight; po, 0.5 mL, 20 mg/mL solution): 1.4e+07 ng/g

O=C(O)C[C@H](O)C[C@H](O)/C=C/c1c(C2CC2)nc2ccccc2c1-c1ccc(F)cc1
Cmax (FVB wild-type mouse, plasma; oral, 5 mg/kg, with: rifampin 20 mg/kg oral): 145 nM

COc1ccc(C[C@H](NC(=O)[C@H](C)NC(=O)CN2CCOCC2)C(=O)N[C@@H](Cc2ccccc2)C(=O)C2(C)CO2)cc1 (stereo in doubt)
Cmax (BALB/c mouse; oral, 20 mg/kg single): 18000 nM

CC[C@H](C)[C@@H]1NC(=O)[C@@](C)(NC(=O)[C@H](CCCNC(=N)N)NC(=O)[C@H](CC(C)C)NC(=O)[C@@H](NC(=O)[C@H](CCC(N)=O)NC(=O)[C@H](CC(C)C)NC(C)=O)[C@@H](C)O)CCCC=CCCC[C@@](C)(C(=O)N[C@@H](CC(C)C)C(=O)N[C@@H](Cc2ccc3ccccc3c2)C(N)=O)NC(=O)[C@H](CCCNC(=N)N)NC(=O)[C@H](CCC(N)=O)NC1=O
Cmax (BALB/c mouse, plasma; ip, 5 mg/kg): 10500 ng/mL

COc1cc([C@@H]2Oc3c(O)ccc([C@H]4Oc5cc(O)cc(O)c5C(=O)[C@@H]4O)c3[C@H]2CO)ccc1O
Cmax (FVB wild-type mouse, plasma; oral gavage, 500 mg/kg silymarin): not detected

Nc1nnc(-c2ccccc2O)cc1N1CCN(Cc2ccc(OCCOCCNc3cccc4c3C(=O)N(C3CCC(=O)NC3=O)C4=O)c(F)c2)CC1 (stereo not drawn)
Cmax (mouse, plasma; intraperitoneal, 50 mg/kg single dose, with: ritonavir 12.5 mg/kg): 5400 nM

Cc1cc(NC2Cc3cc(F)c(F)cc3C2)n2nc(C(C)(F)F)nc2n1
Cmax (NSG mouse, whole blood; oral, 30 mg/kg): 14500 nM

CCOC(=O)C1=C(CN2CCC[C@@H]2C(=O)Nc2ccc(B(O)O)cc2)NC(c2nccs2)=N[C@H]1c1ccc(F)cc1Br
Cmax (ICR mouse, plasma; intravenous, 2 mg/kg): 1530 ± 241 ng/mL

Cc1cc(NC2CCc3cc(Cl)ccc3C2)n2nc(C(C)(F)F)nc2n1 (stereo not drawn)
Cmax (NSG mouse, whole blood; oral, 30 mg/kg): 2200 nM

C=CCn1c(=O)c2cnc(Nc3ccc(N4CCN(C)CC4)cc3)nc2n1-c1ccc2c(n1)[C@@](O)(CC)CC2
Cmax (female NOD/SCID mouse OVCAR-3 xenograft, plasma; oral, 80 mg/kg once daily, :2): 4730 ng/mL

CC1(C)c2nc(-c3ccc(F)cc3)c(Nc3ccc(F)cc3)n2CCN1C(=O)CN
Cmax (NMRI mouse Plasmodium berghei-infected, blood; oral, 2 mg/kg, monotherapy): 367 nM

Cc1cc(N[C@H]2CCc3ccc(Cl)cc3C2)n2nc(C(C)(F)F)nc2n1
Cmax (NSG mouse, whole blood; oral, 30 mg/kg): 2830 nM

Repeated from above:
Cc1cc(NC2CCc3cc(Cl)ccc3C2)n2nc(C(C)(F)F)nc2n1 (stereo not drawn)
Cmax (NSG mouse, whole blood; oral, 30 mg/kg): 2200 nM

Cc1cc(N[C@H]2CCc3ccc(Cl)cc3C2)n2nc(C(C)(F)F)nc2n1
Cmax (NSG mouse, whole blood; oral, 30 mg/kg): 2830 nM

CC[C@H](C)[C@@H]1NC(=O)[C@@](C)(NC(=O)[C@H](CCCNC(=N)N)NC(=O)[C@H](CC(C)C)NC(=O)[C@@H](NC(=O)[C@H](CCC(N)=O)NC(=O)[C@H](CC(C)C)NC(C)=O)[C@@H](C)O)CCCC=CCCC[C@@](C)(C(=O)N[C@@H](CC(C)C)C(=O)N[C@@H](Cc2ccc3ccccc3c2)C(N)=O)NC(=O)[C@H](CCCNC(=N)N)NC(=O)[C@H](CCC(N)=O)NC1=O
Cmax (BALB/c mouse, plasma; ip, 5 mg/kg): 10500 ng/mL

Cc1cc(NC2Cc3cc(F)c(F)cc3C2)n2nc(C(C)(F)F)nc2n1
Cmax (NSG mouse, whole blood; oral, 30 mg/kg): 14500 nM
